Results gathered from unrelated publications.
Numbered parts are unrelated; each lists some results of a single study. “And” joins repeats or separate records; there may be more than shown.
Chain of UniProt P35368 (whole entry, looked up): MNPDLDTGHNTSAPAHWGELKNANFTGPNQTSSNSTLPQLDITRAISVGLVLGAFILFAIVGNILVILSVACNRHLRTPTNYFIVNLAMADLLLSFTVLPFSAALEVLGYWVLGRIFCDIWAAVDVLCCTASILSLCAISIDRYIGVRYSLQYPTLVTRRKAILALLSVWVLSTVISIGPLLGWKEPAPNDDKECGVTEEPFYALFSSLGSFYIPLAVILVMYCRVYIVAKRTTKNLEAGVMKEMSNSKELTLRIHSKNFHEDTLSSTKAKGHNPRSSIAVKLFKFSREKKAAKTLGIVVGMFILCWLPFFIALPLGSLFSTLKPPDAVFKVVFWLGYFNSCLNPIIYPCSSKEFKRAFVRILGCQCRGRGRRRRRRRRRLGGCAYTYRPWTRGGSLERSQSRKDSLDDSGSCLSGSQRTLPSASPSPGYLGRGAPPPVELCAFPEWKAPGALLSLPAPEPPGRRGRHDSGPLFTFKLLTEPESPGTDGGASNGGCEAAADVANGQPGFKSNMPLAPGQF
Chain of UniProt Q99720 (whole entry, looked up): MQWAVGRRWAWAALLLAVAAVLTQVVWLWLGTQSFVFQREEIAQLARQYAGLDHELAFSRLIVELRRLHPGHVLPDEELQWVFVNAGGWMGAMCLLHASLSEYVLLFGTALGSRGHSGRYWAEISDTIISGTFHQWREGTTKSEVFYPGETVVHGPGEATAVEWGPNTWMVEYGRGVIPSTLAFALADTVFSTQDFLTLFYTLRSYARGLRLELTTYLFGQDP
Chain of UniProt P08913 (whole entry, looked up): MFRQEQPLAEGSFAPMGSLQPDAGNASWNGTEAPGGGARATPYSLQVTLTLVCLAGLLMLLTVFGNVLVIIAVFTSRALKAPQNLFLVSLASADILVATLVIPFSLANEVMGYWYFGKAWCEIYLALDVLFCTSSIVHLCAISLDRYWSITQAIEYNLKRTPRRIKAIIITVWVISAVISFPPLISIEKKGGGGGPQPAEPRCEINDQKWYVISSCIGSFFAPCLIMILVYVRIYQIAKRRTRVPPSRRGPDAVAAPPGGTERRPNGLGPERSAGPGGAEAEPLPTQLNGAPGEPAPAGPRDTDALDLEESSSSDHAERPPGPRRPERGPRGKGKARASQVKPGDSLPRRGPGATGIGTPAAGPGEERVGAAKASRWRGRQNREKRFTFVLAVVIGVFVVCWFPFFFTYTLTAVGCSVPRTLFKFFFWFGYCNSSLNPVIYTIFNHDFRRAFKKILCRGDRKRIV
Chain of UniProt Q5BJF2 (whole entry, looked up): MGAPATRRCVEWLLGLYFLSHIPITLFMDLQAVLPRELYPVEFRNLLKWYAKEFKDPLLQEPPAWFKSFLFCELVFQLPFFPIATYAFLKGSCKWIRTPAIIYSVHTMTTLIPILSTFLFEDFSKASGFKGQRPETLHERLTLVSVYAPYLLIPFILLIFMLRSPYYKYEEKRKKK
Chain of UniProt P21917 (whole entry, looked up): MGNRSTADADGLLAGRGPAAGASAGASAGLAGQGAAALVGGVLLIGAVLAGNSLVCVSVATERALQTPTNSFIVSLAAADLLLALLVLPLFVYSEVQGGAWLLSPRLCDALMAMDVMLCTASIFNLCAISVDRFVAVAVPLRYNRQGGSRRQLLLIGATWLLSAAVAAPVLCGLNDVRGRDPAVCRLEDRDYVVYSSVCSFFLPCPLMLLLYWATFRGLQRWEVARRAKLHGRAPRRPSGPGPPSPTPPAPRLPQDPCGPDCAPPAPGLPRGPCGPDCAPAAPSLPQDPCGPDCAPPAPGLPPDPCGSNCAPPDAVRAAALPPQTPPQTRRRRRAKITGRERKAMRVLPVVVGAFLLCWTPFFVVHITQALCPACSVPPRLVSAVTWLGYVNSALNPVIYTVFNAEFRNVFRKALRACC
Chain of UniProt P41143 (whole entry, looked up): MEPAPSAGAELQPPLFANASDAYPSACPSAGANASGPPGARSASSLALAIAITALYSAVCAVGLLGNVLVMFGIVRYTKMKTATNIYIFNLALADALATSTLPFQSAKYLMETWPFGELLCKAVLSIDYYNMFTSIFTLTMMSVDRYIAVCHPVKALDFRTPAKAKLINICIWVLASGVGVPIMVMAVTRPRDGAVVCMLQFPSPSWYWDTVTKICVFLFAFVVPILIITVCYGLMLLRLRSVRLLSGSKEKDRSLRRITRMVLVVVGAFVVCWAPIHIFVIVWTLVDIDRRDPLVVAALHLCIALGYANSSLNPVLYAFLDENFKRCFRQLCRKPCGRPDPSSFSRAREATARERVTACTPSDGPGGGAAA
Chain of UniProt P21918 (whole entry, looked up): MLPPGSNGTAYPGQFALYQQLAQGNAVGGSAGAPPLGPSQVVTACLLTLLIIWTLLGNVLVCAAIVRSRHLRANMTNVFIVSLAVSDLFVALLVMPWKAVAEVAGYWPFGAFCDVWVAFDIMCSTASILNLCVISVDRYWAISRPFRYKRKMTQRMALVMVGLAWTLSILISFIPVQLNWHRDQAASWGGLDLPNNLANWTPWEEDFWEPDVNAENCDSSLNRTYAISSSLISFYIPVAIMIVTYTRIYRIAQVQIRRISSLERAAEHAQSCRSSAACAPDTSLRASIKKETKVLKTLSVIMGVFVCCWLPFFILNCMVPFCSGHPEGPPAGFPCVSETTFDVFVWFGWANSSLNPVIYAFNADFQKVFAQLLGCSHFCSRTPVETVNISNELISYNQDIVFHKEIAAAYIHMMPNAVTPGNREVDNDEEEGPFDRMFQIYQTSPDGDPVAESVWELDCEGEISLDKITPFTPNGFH
Chain of UniProt P50406 (whole entry, looked up): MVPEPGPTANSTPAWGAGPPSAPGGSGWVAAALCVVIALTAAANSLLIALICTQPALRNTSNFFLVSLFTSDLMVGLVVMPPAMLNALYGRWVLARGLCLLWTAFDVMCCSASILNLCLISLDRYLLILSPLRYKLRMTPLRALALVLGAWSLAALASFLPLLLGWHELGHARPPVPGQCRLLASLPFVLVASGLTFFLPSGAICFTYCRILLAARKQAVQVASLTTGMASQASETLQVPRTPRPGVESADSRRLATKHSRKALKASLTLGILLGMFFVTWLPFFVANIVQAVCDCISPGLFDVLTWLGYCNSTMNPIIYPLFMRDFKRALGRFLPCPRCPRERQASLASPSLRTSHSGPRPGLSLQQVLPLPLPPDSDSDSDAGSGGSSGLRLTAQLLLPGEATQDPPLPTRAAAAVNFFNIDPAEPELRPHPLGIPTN
Chain of UniProt Q9H3N8 (whole entry, looked up): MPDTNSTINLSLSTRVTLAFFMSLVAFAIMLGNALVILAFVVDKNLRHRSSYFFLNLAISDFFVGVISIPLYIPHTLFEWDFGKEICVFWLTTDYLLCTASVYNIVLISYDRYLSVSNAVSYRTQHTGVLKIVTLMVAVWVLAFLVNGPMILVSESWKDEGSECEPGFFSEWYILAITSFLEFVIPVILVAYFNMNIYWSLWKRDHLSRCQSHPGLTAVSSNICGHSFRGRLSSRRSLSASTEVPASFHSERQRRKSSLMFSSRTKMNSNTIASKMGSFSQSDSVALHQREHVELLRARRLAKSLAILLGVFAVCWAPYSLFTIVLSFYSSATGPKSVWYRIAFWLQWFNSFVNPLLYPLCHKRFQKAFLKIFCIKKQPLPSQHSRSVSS
Chain of UniProt P35367 (whole entry, looked up): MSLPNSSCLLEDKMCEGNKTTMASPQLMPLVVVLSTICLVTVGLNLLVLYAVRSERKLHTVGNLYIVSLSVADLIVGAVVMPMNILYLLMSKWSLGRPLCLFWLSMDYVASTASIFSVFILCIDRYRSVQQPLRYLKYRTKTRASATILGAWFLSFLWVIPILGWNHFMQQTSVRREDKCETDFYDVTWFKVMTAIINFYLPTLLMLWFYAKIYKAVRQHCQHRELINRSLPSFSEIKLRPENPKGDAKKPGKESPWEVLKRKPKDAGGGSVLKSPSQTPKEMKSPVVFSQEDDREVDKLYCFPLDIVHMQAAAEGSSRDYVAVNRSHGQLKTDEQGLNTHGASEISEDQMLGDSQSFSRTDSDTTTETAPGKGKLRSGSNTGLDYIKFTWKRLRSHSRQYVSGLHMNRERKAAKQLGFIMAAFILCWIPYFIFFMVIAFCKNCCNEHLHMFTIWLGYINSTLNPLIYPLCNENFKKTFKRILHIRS
Chain of UniProt P35372 (whole entry, looked up): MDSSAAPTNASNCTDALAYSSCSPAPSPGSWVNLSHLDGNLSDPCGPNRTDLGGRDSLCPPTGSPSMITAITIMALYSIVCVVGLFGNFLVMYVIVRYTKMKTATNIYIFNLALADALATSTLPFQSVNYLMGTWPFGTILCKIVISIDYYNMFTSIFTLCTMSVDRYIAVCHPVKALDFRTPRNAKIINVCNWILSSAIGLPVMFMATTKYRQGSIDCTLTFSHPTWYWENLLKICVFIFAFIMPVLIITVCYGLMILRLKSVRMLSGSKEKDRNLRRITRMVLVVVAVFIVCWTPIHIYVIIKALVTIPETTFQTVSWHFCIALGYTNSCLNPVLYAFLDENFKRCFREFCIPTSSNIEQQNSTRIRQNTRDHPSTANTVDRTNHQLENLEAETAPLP
Chain of UniProt P08912 (whole entry, looked up): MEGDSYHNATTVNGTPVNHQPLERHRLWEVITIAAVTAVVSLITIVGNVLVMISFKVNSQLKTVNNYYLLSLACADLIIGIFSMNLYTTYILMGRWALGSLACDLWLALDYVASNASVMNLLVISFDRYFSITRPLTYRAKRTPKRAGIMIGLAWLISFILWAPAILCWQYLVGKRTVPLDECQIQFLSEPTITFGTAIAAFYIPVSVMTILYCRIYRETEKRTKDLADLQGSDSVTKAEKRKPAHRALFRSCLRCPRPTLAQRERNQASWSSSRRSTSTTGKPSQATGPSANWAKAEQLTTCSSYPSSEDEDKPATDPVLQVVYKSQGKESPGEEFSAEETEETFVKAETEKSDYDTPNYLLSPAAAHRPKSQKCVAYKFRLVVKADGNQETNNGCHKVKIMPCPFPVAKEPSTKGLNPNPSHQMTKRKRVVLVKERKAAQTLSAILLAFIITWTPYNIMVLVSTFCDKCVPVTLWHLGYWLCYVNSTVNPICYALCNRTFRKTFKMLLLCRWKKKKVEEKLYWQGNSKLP

Study 1
Target: chymotrypsin
Observed: enzyme activity
Mode: inhibitor
Tested at: 10 µM
Setting: with DTT
Cc1ccc(C(=O)n2nc(-c3cccnc3)nc2N)cc1 has an inhibition of 103%.
With O=C(c1cccs1)c1no[n+]([O-])c1C(=O)c1cccs1 the inhibition was 8.7%.
For NC[C@H](O)c1ccc(O)c(O)c1, the inhibition was 2%.
The inhibition of CCOC(=O)Cc1ccc(-c2ccccc2)cc1 is reported as -0.9%.
With COc1ccc(C(=O)n2nc(-c3ccccc3)nc2N)cc1OC the inhibition was 60.9%.
NC(CO)C(=O)NNCc1ccc(O)c(O)c1O (centres unmarked) has an inhibition of 0.4%.
The inhibition of COc1ccnc(C[S+]([O-])c2nc3ccc(OC(F)F)cc3[nH]2)c1OC (centres unmarked) is reported as 8.3%.
The inhibition of O=C1C=Cc2cc(Br)ccc2C1=O is reported as 8.5%.
For N[C@@H](Cc1ccc(O)c(O)c1)C(=O)O, the inhibition was 9.2%.
CCOc1cc(C(Nc2cc(C)ccn2)c2ccc3cccnc3c2O)ccc1OC (centres unmarked) has an inhibition of 13.4%.

Study 2
Organism: Vesicular stomatitis virus
Observed: pseudovirus infection
Technique: FDA-approved drug library screen
Tested at: concentration not given
Setting: VSV-G control pseudotype
Relative to: vehicle
CCN(CC)C(=O)C1(c2ccccc2)CC1CN.Cl (centres unmarked) gave a GFP-positive cells of 120%.
S=P(N1CC1)(N1CC1)N1CC1 gave a GFP-positive cells of 108%.
COc1ccc(C[C@@H](C)NC[C@H](O)c2ccc(O)c(NC=O)c2)cc1.COc1ccc(C[C@@H](C)NC[C@H](O)c2ccc(O)c(NC=O)c2)cc1.O=C(O)/C=C/C(=O)O has a GFP-positive cells of 126%.
CN[C@H]1C(=O)N[C@@H]2Cc3ccc(cc3)Oc3cc4cc(c3O[C@@H]3O[C@H](C(=O)O)[C@@H](O)[C@H](O)[C@H]3NC(=O)CCCCCCCCC(C)C)Oc3ccc(cc3Cl)[C@@H](O)[C@@H]3NC(=O)[C@H](NC(=O)[C@@H]4NC(=O)[C@@H](NC2=O)c2cc(cc(O)c2Cl)Oc2cc1ccc2O)c1ccc(O)c(c1)-c1c(O[C@H]2O[C@H](CO)[C@@H](O)[C@H](O)[C@@H]2O)cc(O)cc1[C@@H](C(=O)O)NC3=O gave a GFP-positive cells of 58.8%.
The GFP-positive cells of CN(C)[C@@H]1C(=O)C(C(N)=O)=C(O)[C@@]2(O)C(=O)C3=C(O)c4c(O)cccc4[C@@](C)(O)[C@H]3[C@H](O)[C@@H]12 is reported as 80.1%.
For CC(O)(P(=O)([O-])O)P(=O)([O-])O.[Na+].[Na+], the GFP-positive cells was 115%.
For CC[C@@H]1C(=O)OC[C@@H]1Cc1cncn1C.Cl, the GFP-positive cells was 105%.
CC[C@H](C)[C@H](N)C1=N[C@H](C(=O)N[C@@H](CC(C)C)C(=O)N[C@H](CCC(=O)O)C(=O)N[C@H](C(=O)N[C@H]2CCCCNC(=O)[C@H](CC(N)=O)NC(=O)[C@@H](CC(=O)O)NC(=O)[C@H](Cc3cnc[nH]3)NC(=O)[C@@H](Cc3ccccc3)NC(=O)[C@H]([C@@H](C)CC)NC(=O)[C@@H](CCCN)NC2=O)[C@@H](C)CC)CS1 gave a GFP-positive cells of 122%.
O=C([O-])[C@H](O)[C@@H](O)[C@H](O)[C@H](O)CO.[Na+] gave a GFP-positive cells of 105%.
For Cc1onc(-c2ccccc2Cl)c1C(=O)N[C@@H]1C(=O)N2[C@@H]1SC(C)(C)[C@@H]2C(=O)[O-].O.[Na+], the GFP-positive cells was 88.4%.
With CN(C)CCOC(c1ccc(Cl)cc1)c1ccccn1.O=C(O)/C=C\C(=O)O (centres unmarked) the GFP-positive cells was 123%.
CCC(=O)Oc1ccc2c(c1)CC[C@@H]1[C@@H]2CC[C@]2(C)[C@@H](OC(=O)CC)CC[C@@H]12 has a GFP-positive cells of 120%.
The GFP-positive cells of CCO.C[C@H]1c2cccc(O)c2C(O)=C2C(=O)[C@]3(O)C(O)=C(C(N)=O)C(=O)[C@@H](N(C)C)[C@@H]3[C@@H](O)[C@@H]21.C[C@H]1c2cccc(O)c2C(O)=C2C(=O)[C@]3(O)C(O)=C(C(N)=O)C(=O)[C@@H](N(C)C)[C@@H]3[C@@H](O)[C@@H]21.Cl.Cl.O is reported as 88.5%.
The GFP-positive cells of Cc1nc2n(c(=O)c1CCN1CCC(c3noc4cc(F)ccc34)CC1)CCCC2 is reported as 88.4%.
The GFP-positive cells of COCCCOc1ccnc(CSc2nc3ccccc3[nH]2)c1C is reported as 121%.
For CC(C)NCC(O)COc1ccc(COCCOC(C)C)cc1.CC(C)NCC(O)COc1ccc(COCCOC(C)C)cc1.O=C(O)/C=C/C(=O)O (racemic), the GFP-positive cells was 107%.
With C[C@]12CCC(=O)C=C1CC[C@@H]1[C@@H]2C(=O)C[C@@]2(C)[C@H]1CC[C@]2(O)C(=O)CO the GFP-positive cells was 96.4%.
CCN1CC(CCN2CCOCC2)C(c2ccccc2)(c2ccccc2)C1=O.Cl.O (centres unmarked) gave a GFP-positive cells of 136%.
For Cl.NC(N)=NCCC[C@H](N)C(=O)O, the GFP-positive cells was 117%.
CCCCC(O)c1ccccc1 (centres unmarked) gave a GFP-positive cells of 130%.
For NC(N)=O, the GFP-positive cells was 84.7%.
With O=C(O)C(=O)O.[NH-][C@@H]1CCCC[C@H]1[NH-].[Pt+2] the GFP-positive cells was 102%.
CNC(=C[N+](=O)[O-])NCCSCc1ccc(CN(C)C)o1.Cl gave a GFP-positive cells of 94.5%.
For O=C(O)CCCc1ccc(N(CCCl)CCCl)cc1, the GFP-positive cells was 100%.
With C=CCN1CC[C@]23c4c5ccc(O)c4O[C@H]2[C@@H](OCCOCCOCCOCCOCCOCCOCCOC)CC[C@@]3(O)[C@H]1C5.O=C(O)C(=O)O the GFP-positive cells was 114%.

Study 3
SMILES: Cn1cncc1[C@@](O)(COc1ccc(C#N)cc1-c1ccc(OC(F)(F)F)cc1)c1ccc(C#N)cc1
Observed: ligand displacement
Tested at: 10 µM
Muscarinic acetylcholine receptor M5 (CHRM5, Homo sapiens, UniProt P08912) — inhibition: 1.23%.
The inhibition was 2.4% (Delta-type opioid receptor (OPRD1, Homo sapiens, UniProt P41143)).
The inhibition was 14.2% (5-hydroxytryptamine receptor 6 (HTR6, Homo sapiens, UniProt P50406)).
It gave 5.97% for inhibition (Alpha-1B adrenergic receptor (ADRA1B, Homo sapiens, UniProt P35368)).
Alpha-2C adrenergic receptor (ADRA2C, Homo sapiens, UniProt P18825) — inhibition: 8.51%.
For Histamine H4 receptor (HRH4, Homo sapiens, UniProt Q9H3N8): inhibition read -3.79%.
It gave 3.37% for inhibition (Alpha-2A adrenergic receptor (ADRA2A, Homo sapiens, UniProt P08913)).
It gave 5.18% for inhibition (Sodium-dependent noradrenaline transporter (SLC6A2, Homo sapiens, UniProt P23975)).
For Mu-type opioid receptor (OPRM1, Homo sapiens, UniProt P35372): inhibition read -3.25%.
The inhibition was -18.6% (Alpha-1D adrenergic receptor (ADRA1D, Homo sapiens, UniProt P25100)).
Sigma non-opioid intracellular receptor 1 (SIGMAR1, Homo sapiens, UniProt Q99720) — inhibition: 92.3%.
The inhibition was 6.23% (D(4) dopamine receptor (DRD4, Homo sapiens, UniProt P21917)).
Histamine H1 receptor (HRH1, Homo sapiens, UniProt P35367) — inhibition: 43.5%.
The inhibition was -7.91% (Sodium-dependent serotonin transporter (SLC6A4, Homo sapiens, UniProt P31645)).
For D(1B) dopamine receptor (DRD5, Homo sapiens, UniProt P21918): inhibition read -12.4%.
5-hydroxytryptamine receptor 7 (HTR7, Homo sapiens, UniProt P34969) — inhibition: 15%.
For Sigma intracellular receptor 2 (TMEM97, Homo sapiens, UniProt Q5BJF2): inhibition read 37.8%.

Mixed results
CN(C(=O)c1ccn2ncc(-c3ccc(C(N)=O)cc3)c2c1)c1ccc(C#N)cn1: “fold IC50 shift” 18.2 and 24.5 (C. parvum PI4K Y907A; enzyme activity, inhibitor, ADP-Glo; relative to: mutant over wild type).

Repeated from above (study 2):
For Cl.NC(N)=NCCC[C@H](N)C(=O)O, the GFP-positive cells was 117%.
CCCCC(O)c1ccccc1 (centres unmarked) gave a GFP-positive cells of 130%.
For NC(N)=O, the GFP-positive cells was 84.7%.
With O=C(O)C(=O)O.[NH-][C@@H]1CCCC[C@H]1[NH-].[Pt+2] the GFP-positive cells was 102%.
CNC(=C[N+](=O)[O-])NCCSCc1ccc(CN(C)C)o1.Cl gave a GFP-positive cells of 94.5%.
